Measured values pooled from the literature.
Numbered parts are unrelated; each lists some results of a single study.
Sequence of UniProt P14616 (whole entry, looked up): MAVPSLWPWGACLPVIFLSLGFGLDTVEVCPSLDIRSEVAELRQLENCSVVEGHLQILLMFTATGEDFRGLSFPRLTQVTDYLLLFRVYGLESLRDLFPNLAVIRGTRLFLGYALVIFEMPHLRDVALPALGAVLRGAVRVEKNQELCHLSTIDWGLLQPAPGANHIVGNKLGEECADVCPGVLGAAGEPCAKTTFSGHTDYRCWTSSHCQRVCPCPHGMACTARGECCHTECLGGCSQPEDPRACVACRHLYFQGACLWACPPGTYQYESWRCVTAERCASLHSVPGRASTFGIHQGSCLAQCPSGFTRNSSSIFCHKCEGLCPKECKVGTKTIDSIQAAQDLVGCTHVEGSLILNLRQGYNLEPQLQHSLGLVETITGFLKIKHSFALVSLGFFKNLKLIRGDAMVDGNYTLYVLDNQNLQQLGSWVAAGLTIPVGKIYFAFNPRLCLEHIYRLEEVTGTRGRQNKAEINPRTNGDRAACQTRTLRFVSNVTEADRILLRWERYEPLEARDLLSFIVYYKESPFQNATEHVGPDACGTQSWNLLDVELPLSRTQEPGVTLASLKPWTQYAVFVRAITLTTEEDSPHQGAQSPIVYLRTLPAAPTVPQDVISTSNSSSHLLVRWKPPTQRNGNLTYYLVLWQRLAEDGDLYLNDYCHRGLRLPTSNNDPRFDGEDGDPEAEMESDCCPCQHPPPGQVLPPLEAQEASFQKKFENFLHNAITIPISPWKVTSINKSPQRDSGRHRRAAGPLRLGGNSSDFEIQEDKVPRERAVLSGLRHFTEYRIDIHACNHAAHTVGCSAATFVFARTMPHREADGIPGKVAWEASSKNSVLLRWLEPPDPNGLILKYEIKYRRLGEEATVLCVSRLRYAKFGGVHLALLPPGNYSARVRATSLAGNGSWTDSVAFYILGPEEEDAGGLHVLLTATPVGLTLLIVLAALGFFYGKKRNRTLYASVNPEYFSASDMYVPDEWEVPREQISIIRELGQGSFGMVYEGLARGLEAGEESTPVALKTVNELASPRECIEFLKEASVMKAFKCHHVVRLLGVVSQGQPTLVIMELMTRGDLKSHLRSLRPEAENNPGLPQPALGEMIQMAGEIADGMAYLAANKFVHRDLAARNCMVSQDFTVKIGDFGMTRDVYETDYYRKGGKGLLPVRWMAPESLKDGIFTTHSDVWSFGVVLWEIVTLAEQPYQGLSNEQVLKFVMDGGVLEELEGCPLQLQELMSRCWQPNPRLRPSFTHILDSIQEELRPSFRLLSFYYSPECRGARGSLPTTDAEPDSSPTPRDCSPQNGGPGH
Sequence of UniProt P0C1S8 (whole entry, looked up): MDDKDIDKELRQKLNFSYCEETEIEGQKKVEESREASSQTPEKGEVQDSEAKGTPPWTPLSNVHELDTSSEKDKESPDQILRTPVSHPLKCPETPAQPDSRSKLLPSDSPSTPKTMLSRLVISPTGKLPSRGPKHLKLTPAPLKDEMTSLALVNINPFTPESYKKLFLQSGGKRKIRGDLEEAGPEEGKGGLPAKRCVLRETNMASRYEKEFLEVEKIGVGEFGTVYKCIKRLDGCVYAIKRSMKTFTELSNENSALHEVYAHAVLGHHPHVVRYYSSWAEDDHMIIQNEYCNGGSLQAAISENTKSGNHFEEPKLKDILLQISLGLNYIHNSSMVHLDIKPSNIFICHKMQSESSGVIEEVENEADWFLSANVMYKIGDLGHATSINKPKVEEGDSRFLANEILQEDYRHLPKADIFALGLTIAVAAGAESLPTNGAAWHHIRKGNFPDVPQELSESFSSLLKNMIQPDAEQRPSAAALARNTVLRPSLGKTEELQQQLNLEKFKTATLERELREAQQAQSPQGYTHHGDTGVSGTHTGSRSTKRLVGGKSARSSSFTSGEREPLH
Sequence of UniProt P09769 (whole entry, looked up): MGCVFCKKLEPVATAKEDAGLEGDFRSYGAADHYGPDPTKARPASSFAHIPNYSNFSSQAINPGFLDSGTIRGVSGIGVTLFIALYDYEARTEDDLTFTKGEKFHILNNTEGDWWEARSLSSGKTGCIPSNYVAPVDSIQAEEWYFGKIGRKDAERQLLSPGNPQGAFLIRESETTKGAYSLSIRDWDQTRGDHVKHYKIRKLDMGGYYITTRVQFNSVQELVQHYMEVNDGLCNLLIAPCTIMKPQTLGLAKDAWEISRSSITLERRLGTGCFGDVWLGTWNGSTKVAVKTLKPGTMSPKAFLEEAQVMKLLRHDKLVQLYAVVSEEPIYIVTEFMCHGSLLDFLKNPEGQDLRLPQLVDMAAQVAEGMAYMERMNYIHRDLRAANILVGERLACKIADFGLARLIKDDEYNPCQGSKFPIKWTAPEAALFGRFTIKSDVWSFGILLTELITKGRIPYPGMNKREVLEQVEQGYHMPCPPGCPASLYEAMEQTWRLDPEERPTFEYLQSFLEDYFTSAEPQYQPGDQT
Sequence of UniProt P10721 (whole entry, unmodified, looked up): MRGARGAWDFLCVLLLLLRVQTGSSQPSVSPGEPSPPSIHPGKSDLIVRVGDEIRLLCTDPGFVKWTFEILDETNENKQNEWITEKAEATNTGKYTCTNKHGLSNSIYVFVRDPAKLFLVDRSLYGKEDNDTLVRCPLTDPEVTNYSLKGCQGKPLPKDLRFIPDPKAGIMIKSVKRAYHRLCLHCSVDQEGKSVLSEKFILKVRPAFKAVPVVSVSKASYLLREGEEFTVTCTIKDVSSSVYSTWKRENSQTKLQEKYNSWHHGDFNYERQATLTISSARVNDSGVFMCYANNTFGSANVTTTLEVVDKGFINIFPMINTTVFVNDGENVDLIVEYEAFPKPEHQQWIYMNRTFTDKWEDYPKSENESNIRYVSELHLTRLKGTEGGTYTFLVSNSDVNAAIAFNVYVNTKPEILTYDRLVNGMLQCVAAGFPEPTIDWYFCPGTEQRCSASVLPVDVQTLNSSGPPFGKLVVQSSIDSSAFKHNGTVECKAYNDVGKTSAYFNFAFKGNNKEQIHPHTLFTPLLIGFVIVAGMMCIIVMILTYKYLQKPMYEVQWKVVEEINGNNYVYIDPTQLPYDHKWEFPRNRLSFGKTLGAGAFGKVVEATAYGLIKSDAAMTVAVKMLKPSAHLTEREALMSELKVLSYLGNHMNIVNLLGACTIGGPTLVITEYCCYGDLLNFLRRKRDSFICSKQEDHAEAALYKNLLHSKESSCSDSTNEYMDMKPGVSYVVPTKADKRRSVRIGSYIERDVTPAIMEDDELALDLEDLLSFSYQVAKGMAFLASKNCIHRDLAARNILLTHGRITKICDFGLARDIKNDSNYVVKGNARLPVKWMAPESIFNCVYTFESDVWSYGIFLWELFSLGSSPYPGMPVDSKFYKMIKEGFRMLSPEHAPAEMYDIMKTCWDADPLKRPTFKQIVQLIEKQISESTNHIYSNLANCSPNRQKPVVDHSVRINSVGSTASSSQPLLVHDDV
Sequence of UniProt Q9Y4K4 (whole entry, looked up): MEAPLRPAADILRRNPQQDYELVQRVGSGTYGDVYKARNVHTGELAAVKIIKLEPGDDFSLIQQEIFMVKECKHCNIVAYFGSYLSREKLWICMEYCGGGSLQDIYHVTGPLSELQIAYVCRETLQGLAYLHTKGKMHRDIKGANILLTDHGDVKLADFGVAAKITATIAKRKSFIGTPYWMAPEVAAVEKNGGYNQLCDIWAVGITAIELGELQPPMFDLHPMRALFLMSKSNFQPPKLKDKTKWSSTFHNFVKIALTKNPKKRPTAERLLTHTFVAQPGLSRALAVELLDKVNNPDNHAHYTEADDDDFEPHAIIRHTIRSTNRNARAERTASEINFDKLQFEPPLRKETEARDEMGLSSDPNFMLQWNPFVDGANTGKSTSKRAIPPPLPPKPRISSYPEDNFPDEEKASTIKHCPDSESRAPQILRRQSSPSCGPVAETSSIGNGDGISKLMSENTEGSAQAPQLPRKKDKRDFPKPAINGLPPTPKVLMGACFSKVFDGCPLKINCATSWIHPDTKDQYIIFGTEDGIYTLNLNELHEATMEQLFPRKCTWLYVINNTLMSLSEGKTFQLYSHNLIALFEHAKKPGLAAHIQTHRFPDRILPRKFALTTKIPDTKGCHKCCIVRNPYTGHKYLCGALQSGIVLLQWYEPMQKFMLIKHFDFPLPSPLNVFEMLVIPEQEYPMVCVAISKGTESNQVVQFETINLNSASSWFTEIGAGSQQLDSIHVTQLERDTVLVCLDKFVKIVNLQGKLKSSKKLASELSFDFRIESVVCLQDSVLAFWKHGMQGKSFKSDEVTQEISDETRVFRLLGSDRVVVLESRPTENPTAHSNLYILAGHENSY

Series 1 — read-out: enzyme activity; mode: inhibitor; concentration: 0.5 µM; relative to: control; measurement: remaining activity
Target: Mitogen-activated protein kinase kinase kinase 20 (MAP3K20, Homo sapiens, UniProt Q9NYL2)
Sequence of UniProt Q9NYL2 (whole entry, looked up): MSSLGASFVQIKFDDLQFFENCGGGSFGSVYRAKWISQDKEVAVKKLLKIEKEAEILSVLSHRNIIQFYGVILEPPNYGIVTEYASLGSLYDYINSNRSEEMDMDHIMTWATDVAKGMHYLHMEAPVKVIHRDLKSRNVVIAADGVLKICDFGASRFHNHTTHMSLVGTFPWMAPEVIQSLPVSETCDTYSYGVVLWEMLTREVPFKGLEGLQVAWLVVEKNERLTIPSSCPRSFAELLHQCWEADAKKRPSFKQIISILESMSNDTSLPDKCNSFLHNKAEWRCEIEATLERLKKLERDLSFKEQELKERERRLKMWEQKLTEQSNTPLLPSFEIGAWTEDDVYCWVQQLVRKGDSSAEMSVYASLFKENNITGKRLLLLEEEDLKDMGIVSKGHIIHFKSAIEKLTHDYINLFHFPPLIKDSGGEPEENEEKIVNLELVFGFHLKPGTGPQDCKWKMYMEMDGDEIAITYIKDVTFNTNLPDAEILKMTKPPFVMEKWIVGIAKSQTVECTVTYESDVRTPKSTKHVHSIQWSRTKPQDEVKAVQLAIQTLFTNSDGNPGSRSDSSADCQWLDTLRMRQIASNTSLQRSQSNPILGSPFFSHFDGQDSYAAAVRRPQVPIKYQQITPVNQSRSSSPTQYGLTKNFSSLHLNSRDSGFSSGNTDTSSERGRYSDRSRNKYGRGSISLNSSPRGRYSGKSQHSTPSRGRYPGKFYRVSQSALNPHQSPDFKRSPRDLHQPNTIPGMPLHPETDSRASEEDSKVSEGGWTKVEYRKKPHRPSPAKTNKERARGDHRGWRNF
SMILES = COc1cc2ncnc(Nc3ccc(O)c(Br)c3)c2cc1OC; result = 89%
SMILES = COc1cc2c(cc1OC)-c1[nH]nc(Nc3cccc(F)c3)c1C2; result = 44.7%
SMILES = CN(C)C[C@H]1CCn2c(c(C3=C(c4cn(C)c5ccccc45)C(=O)NC3=O)c3ccccc32)C1; result = 87.3%
SMILES = O=c1cc(-c2cccc3c2Sc2ccccc2S3)oc(N2CCOCC2)c1; result = 100%
SMILES = O=C1C(Cl)=C(N2C(=O)CCC2=O)C(=O)c2ccccc21; result = 97.9%
SMILES = c1ccc(-c2[nH]ncc2-c2ccnc3ccccc23)nc1; result = 78%
SMILES = Cc1nc2cc3nc(-c4cccs4)cnc3cc2n1C; result = 89.1%

Series 2 — read-out: cell-free assay; method: competition with immobilised ligand; concentration: 1 µM; measurement: remaining binding
Structure (SMILES): O=C(O)[C@H]1[C@H](Cn2nnc3ccccc3c2=O)CC[C@@H]1C(=O)c1ccc(OCCC2CCOCC2)cc1
target = Insulin receptor-related protein (INSRR, Homo sapiens, UniProt P14616); result = 81%
target = Tyrosine-protein kinase Fgr (FGR, Homo sapiens, UniProt P09769); result = 86%
target = Serine/threonine-protein kinase PAK 3 (PAK3, Homo sapiens, UniProt O75914); result = 86%
target = Mitogen-activated protein kinase kinase kinase kinase 5 (MAP4K5, Homo sapiens, UniProt Q9Y4K4); result = 92%
target = Mast/stem cell growth factor receptor Kit (KIT, Homo sapiens, UniProt P10721, T670I/V559D); result = 69%
target = Tyrosine-protein kinase ABL1, non-phosphorylated (ABL1, Homo sapiens, UniProt P00519, Q252H); result = 98%
target = Tyrosine-protein kinase Srms (SRMS, Homo sapiens, UniProt Q9H3Y6); result = 100%
target = Cyclin-dependent kinase 16 (CDK16, Homo sapiens, UniProt Q00536); result = 98%
target = Receptor tyrosine-protein kinase erbB-2 (ERBB2, Homo sapiens, UniProt P04626); result = 100%
target = Wee1-like protein kinase 2 (WEE2, Homo sapiens, UniProt P0C1S8); result = 100%

Series 3 — cell line: A-375; concentration: 100 µM; time: 36 h; measurement: viability
Compound = CO[C@H]1C[C@@H]2CC[C@@H](C)[C@@](O)(O2)C(=O)C(=O)N2CCCC[C@H]2C(=O)O[C@H]([C@H](C)C[C@@H]2CC[C@@H](O)[C@H](OC)C2)CC(=O)[C@H](C)/C=C(\C)[C@@H](O)[C@@H](OC)C(=O)[C@H](C)C[C@H](C)/C=C/C=C/C=C/1C; result = 20.2%
Compound = CC[C@H](C)C(=O)O[C@H]1C[C@H](O)C=C2C=C[C@H](C)[C@H](CC[C@@H](O)C[C@@H](O)CC(=O)O)[C@H]21; result = 115%
Compound = COc1c2occc2c(OC)c2c(=O)cc(C)oc12; result = 80.9%
Compound = COc1ccc2cc1Oc1ccc(cc1)C[C@H]1c3c(cc4c(c3Oc3cc5c(cc3OC)CCN(C)[C@@H]5C2)OCO4)CCN1C; result = 1.94%
Compound = Cc1cc2nc3c(=O)[nH]c(=O)nc-3n(C[C@H](O)[C@H](O)[C@H](O)COP(=O)(O)O)c2cc1C; result = 224%
Compound = CCOC(=O)c1ccc(C#Cc2ccc3c(c2)C(C)(C)CCS3)nc1; result = 64%
Compound = Brc1c(NC2=NCCN2)ccc2nccnc12; result = 109%
Compound = O=C(/C=C/c1ccc(O)cc1)c1ccc(O)cc1O; result = 43.1%

Other studies, line by line
SMILES = CCC[C@@H]1NC(=O)CSC[C@@H](C(=O)OCC)N(C)C(=O)[C@H](CC(C)C)NC(=O)[C@@H](C)N(C)C(=O)[C@@H](CC(C)C)NC(=O)[C@H](C)N(C)C(=O)[C@H]2CCCN2C(=O)[C@@H](CC(C)C)NC(=O)CN(C)C1=O; matrix = hydrocarbon/water; measurement = logD; result = 0.302

Excerpt of the above (other studies, line by line):
SMILES = CCC[C@@H]1NC(=O)CSC[C@@H](C(=O)OCC)N(C)C(=O)[C@H](CC(C)C)NC(=O)[C@@H](C)N(C)C(=O)[C@@H](CC(C)C)NC(=O)[C@H](C)N(C)C(=O)[C@H]2CCCN2C(=O)[C@@H](CC(C)C)NC(=O)CN(C)C1=O; matrix = hydrocarbon/water; measurement = logD; result = 0.302
